Assay results collected from several papers.
Parts stem from different laboratories: compare values within a part only. Changes are numbered by the printed parent chain.
UniProt Q9Y243, sequence (whole entry, looked up): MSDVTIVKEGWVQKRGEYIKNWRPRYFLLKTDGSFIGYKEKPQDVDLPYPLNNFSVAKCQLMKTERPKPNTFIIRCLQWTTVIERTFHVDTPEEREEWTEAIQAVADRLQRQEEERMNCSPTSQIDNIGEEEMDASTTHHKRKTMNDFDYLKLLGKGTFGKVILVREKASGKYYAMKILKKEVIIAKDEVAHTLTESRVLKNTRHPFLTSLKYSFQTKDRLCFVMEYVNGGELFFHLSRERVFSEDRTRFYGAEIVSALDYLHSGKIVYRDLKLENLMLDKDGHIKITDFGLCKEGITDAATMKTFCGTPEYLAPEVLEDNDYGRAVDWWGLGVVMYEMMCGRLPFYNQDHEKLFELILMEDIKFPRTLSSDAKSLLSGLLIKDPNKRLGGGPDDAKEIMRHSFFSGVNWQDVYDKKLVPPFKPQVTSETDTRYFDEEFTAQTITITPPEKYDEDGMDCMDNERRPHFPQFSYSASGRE
UniProt P08588, sequence (whole entry, looked up): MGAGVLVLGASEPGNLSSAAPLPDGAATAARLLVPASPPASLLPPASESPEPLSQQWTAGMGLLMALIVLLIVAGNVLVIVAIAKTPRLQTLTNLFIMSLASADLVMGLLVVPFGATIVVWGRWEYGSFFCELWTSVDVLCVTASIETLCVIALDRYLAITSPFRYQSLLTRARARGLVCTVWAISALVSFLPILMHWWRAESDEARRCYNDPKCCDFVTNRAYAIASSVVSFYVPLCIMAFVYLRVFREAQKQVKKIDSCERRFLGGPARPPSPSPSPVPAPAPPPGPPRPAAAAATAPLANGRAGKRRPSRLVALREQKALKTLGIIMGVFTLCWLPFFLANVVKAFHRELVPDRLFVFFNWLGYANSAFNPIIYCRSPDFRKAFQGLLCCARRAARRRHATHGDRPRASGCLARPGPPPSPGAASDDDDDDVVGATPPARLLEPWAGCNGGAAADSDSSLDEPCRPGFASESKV

Series 1 — target: CCNF, cyclin fold, Cln2 fusion (human); method: yeast growth competition, sequencing; medium: yeast; setting: strong parent motif; relative to: not given; direction: higher = stronger binding; starting sequence: viral docking peptide; KGVKRKLFAEDSS
Change | normalised enrichment score
E10Q | 7.48
A9Q | 7.97
K6C | 7.86
L7Y | 0.527
K6R | 8.77
L7F | 0.868
K4C | 7.92
A9H | 7.93

Series 2 — target: vanadate, free oxyanion; method: microfluidic competitive inhibition; medium: in vitro, cell-free expressed; concentration: not given; direction: lower = stronger binding
Setting: derived from inhibition constants, unchanged parent 676 nM
Starting sequence: PafA, mature enzyme, eGFP fusion (Elizabethkingia meningoseptica, UniProt Q9KJX5); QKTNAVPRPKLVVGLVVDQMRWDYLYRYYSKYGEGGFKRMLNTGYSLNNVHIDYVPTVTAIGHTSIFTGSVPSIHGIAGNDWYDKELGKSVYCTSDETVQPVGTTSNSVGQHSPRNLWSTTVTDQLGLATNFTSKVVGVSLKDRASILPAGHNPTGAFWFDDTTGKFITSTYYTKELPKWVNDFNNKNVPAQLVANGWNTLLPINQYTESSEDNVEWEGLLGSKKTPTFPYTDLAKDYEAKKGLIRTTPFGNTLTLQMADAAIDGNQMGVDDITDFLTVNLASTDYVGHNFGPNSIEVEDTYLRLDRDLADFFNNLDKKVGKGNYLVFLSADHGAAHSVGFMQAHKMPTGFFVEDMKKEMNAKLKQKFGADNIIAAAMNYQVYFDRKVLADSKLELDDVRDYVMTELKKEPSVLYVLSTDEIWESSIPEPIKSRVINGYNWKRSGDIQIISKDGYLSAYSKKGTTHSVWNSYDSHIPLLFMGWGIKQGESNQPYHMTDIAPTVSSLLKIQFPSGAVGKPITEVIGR
Change | oxyanion analog dissociation constant
A458V | 592 nM
D84G | 1.01 µM
T104G | 1.65 µM
I476V | 754 nM
P72G | 1.04 µM
S95G | 888 nM
N294V | 790 nM
A261G | 878 nM

Other studies, line by line
Substance | tested on | assay | setting | quantity | result
SARS1 (Homo sapiens, UniProt P49591) | BLTP3A (Homo sapiens, UniProt Q6BDS2) | cross-linking MS | together with: DSSO | cross-linked residues | K116 to S746
C=CC(=O)Nc1ccc2[nH]c(=O)n(C3CCN(Cc4ccc(-c5ccc6c(c5)NC(=O)CO6)cc4)CC3)c2c1 | RAC-gamma serine/threonine-protein kinase (AKT3, Homo sapiens, UniProt Q9Y243) | target engagement in cells, BRET | – | IC50 | 12 µM
NCCc1cc(=O)oc2cc(O)c(Cl)cc12 | Beta-1 adrenergic receptor (ADRB1, Homo sapiens, UniProt P08588) | antagonist | – | IC50 | ≥ 100 µM
